# Assay results pooled from the literature.
# Chain of UniProt P62258 (whole entry, looked up): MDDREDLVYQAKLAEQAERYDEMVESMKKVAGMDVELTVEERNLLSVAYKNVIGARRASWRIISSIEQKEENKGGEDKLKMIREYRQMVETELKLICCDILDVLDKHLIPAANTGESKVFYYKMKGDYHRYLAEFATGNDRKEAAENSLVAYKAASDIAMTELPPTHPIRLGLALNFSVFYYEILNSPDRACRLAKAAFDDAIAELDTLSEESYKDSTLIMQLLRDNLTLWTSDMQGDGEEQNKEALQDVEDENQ
SMILES,tested on,assay,test system,conditions,how to read,endpoint,value
N#C[C@@]1(n2ccc(N)nc2=O)O[C@H](CO)[C@@H](O)[C@H]1O,,,"CD-1 mouse, plasma","intravenous, 15 mg/kg",,AUC(0-inf),21000 ng·h/mL
CO[C@H]1C[C@@H]2CC[C@@H](C)[C@@](O)(O2)C(=O)C(=O)N2CCCC[C@H]2C(=O)O[C@H]([C@H](C)C[C@@H]2CC[C@@H](OC(=O)NCCOCCOCCOCCOCCOCCOCCOCCOCCC(=O)N3CCc4cc(Cn5nc(-c6ccc7oc(N)nc7c6)c6c(N)ncnc65)ccc4C3)[C@H](OC)C2)C[C@@H](O)[C@H](C)/C=C(\C)[C@@H](O)[C@@H](OC)C(=O)[C@H](C)C[C@H](C)/C=C/C=C/C=C/1C,,"phase 1 dose escalation, measured: gastric haemorrhage",advanced solid tumour patients,"intravenous, 6 mg weekly, grade ≥3",,dose-reducing adverse events,0%
CC/C(=C(\c1ccccc1)c1ccc(OCCN(C)C)cc1)c1ccccc1,,,"CD-1 mouse, male, plasma","intraperitoneal, 30 mg/kg",,AUC(0-inf),8220 ng·h/mL
C[C@H]1CN(c2n[nH]c3nc(N[C@H]4CC[C@H](NS(=O)(=O)CCC(F)(F)F)CC4)ncc23)CCO1,"14-3-3 protein epsilon (Homo sapiens, UniProt P62258)","Kinobeads competition, measured: YWHAE",,"0.032 µM, unit not given",reference: vehicle,remaining binding,1.04
COc1cc2c(cc1OC)CN(CCc1ccc(NC(=O)c3cccc4c(=O)c5cccc(OC)c5[nH]c34)cc1)CC2,,,"CD-1 mouse, male, plasma","intraperitoneal, 10 mg/kg",,AUC(0-inf),12500 ng·h/mL
O=c1ccc2ncc(=O)n3c2n1C[C@H]3CN1CCC(NCc2cc3c(cn2)OCCC3)CC1,,,"healthy human volunteers, plasma","oral, 1500 mg single dose, geometric mean, alone",,AUC(0-inf),18100 ng·h/mL
Cc1[nH]c(C)c(S(=O)(=O)Nc2ccc(S(F)(F)(F)(F)F)cc2)c1C(=O)N1CCC(F)(F)C1,,,"mouse, plasma","intraperitoneal, 40 mg/kg",,AUC(0-inf),190000 ng·h/g
COc1cc2c(Oc3ccc4[nH]c(C)cc4c3F)ccnc2cc1OCC1(N)CC1,,,paediatric recurrent refractory sarcoma,8 mg/kg,,grade 3 sinus bradycardia,0%
Cc1ccc(F)c2cc(C(=O)N[C@@H]3CCC[C@H](N4CC[C@H](N(C)S(C)(=O)=O)C4)C3)[nH]c12,,,CD1 mouse,"intravenous, 1 mg/kg",,AUC(0-inf),314 ng·h/mL
CN[C@H]1CC[C@@H](c2ccc(Cl)c(Cl)c2)c2ccccc21,,,"CD-1 mouse, male, plasma","intraperitoneal, 10 mg/kg",,AUC(0-inf),745 ng·h/mL
CC[C@H](C)[C@@H]1NC(=O)[C@H](CCCNC(=N)N)NC(=O)C[C@@H](c2cccc3ccccc23)NC(=O)[C@@H]2CSSC[C@H](NC(=O)C[C@@H](c3cccc4ccccc34)NC(=O)[C@H](CCCNC(=N)N)NC(=O)[C@@H]3CCCN3C(=O)[C@@H]3CCCN3C1=O)C(=O)N[C@@H](Cc1ccccc1)C(=O)N1CCC[C@H]1C(=O)N[C@@H](CC(=O)O)C(=O)N[C@@H](CC(=O)O)C(=O)N[C@@H](Cc1ccccc1)C(=O)N2,,,athymic nude mouse,"intravenous, 6 mg/kg",,AUC(0-inf),701000 ng·h/mL
CN1CC[C@@H](c2c(O)cc(O)c3c(=O)cc(-c4ccc(C(F)(F)F)cc4Cl)oc23)[C@@H]1CO,,measured: febrile neutropenia,B-cell malignancies or AML,"oral, 50 mg, grade 3 to 4, continuous dosing",,patients with adverse event,0%
CCC[C@@](N)(CO)CCc1ccc(OCCCCCC(C)C)cc1,,,"hound dogs, male","intravenous, 1.0 mg/kg, geometric mean",,AUC(0-inf),4.56 µM·h

# A few entries again:
SMILES,tested on,assay,test system,conditions,how to read,endpoint,value
Cc1ccc(F)c2cc(C(=O)N[C@@H]3CCC[C@H](N4CC[C@H](N(C)S(C)(=O)=O)C4)C3)[nH]c12,,,CD1 mouse,"intravenous, 1 mg/kg",,AUC(0-inf),314 ng·h/mL
